Measured values collected from several papers.
A part holds a random share of what one study measured. Positions count from the first letter of the parent shown.
Chain of UniProt Q94JM3 (whole entry, looked up): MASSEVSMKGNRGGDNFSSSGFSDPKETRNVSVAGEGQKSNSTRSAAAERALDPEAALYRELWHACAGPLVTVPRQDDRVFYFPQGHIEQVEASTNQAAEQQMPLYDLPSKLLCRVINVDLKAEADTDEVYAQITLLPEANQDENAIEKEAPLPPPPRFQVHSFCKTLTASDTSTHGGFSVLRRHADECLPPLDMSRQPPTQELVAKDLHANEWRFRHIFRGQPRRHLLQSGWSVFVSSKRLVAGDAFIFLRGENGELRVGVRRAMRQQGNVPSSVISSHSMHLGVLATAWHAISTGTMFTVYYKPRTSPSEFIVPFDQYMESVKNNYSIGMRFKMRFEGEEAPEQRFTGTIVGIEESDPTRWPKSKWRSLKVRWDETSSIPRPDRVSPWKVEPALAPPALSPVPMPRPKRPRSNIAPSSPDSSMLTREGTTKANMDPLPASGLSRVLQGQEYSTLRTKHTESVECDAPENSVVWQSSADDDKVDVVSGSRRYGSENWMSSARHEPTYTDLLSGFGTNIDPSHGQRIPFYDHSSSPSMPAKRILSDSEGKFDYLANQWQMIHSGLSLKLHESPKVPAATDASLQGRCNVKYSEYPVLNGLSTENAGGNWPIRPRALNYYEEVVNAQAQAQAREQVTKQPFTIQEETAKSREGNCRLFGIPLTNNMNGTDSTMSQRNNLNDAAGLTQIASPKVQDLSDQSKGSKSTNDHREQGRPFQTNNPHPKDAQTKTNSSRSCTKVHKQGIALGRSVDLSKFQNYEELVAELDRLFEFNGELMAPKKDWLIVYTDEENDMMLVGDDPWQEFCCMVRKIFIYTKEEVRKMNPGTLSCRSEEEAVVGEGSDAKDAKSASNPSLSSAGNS
Chain of UniProt Q9FKM7 (whole entry, looked up): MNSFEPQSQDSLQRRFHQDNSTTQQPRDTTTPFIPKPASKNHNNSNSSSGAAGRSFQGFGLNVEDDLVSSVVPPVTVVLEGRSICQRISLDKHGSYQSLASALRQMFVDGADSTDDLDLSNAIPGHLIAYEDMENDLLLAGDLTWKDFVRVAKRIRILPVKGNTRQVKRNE
Chain of UniProt Q9XED8 (whole entry, looked up): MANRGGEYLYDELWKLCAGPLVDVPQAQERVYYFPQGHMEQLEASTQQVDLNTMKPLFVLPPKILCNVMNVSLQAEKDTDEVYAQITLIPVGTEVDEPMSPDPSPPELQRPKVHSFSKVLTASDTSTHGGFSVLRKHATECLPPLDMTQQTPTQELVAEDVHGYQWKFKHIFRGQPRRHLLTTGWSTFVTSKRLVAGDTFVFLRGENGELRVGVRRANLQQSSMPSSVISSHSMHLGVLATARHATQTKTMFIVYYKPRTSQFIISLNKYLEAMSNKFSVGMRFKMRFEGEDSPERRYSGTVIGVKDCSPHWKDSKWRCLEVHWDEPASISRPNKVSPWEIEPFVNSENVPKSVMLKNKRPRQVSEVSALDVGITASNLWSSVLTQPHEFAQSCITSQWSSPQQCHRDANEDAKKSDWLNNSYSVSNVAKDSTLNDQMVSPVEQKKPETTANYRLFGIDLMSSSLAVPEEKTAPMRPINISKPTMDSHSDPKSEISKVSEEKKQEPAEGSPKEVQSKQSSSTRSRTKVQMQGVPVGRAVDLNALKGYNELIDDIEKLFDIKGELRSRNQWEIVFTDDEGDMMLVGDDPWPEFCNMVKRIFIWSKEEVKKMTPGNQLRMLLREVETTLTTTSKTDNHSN

Set 1 — target: CCNB1, cyclin fold, Cln2 fusion (human); technique: yeast growth competition, sequencing; medium: yeast; notes: weak parent motif; reference: not given; reading: higher = stronger binding
Starting sequence: ITGB3BP docking peptide (human); MPVKRSLKLDGLL
Variant | normalised enrichment score
V3A | 1.24
P2A | 0.683
K8A | 0.78
L9F | 0.34
G11A | 0.509
S6A | 1.13
L9A | 0.76

Set 2 — Sequence: B1 (IAA29); technique: two-hybrid; reference: out of 4 tests; reading: higher = firmer interaction
B1: IAA29 (Arabidopsis thaliana, UniProt Q93WC4); chain MELDLGLSLSPHKSSKLGFNFDLNKHCAIEGAASCLGTEKLRFEATFGLGNVEENCYMPKQRLFALNGQPNEEDEDPLESESSIVYDDEEENSEVVGWPPVKTCMIKYGSYHHRHIRNHHHCPYHHRGRRITAMNNNISNPTTATVGSSSSSSISSRSSMYVKVKMDGVAIARKVDIKLFNSYESLTNSLITMFTEYEDCDREDTNYTFTFQGKEGDWLLRGDVTWKIFAESVHRISIIRDRPCAYTRCLF
partner | setting | positive tests
ARF2 727-859 (Arabidopsis thaliana, UniProt Q94JM3) | – | 1
IAA33 (Arabidopsis thaliana, UniProt Q9FKM7) | – | 2
ARF9 519-638 (Arabidopsis thaliana, UniProt Q9XED8) | weak activation fusion | 2

Set 3 — technique: DHFR PCA, deep sequencing; medium: yeast; together with: (+)-ABA 0.0091 µM; reference: wild-type fitted maximum; reading: higher = stronger binding
Target: ABI1, truncated, D143A, DHFR fusion (Arabidopsis thaliana)
Notes: methotrexate growth selection, single substitutions
Starting sequence: PYL1, truncated, DHFR fusion (Arabidopsis thaliana); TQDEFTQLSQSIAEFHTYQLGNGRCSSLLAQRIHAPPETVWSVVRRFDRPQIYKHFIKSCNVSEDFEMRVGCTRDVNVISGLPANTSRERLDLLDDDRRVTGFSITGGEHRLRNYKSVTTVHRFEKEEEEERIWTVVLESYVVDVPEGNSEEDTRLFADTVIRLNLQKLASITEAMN; partner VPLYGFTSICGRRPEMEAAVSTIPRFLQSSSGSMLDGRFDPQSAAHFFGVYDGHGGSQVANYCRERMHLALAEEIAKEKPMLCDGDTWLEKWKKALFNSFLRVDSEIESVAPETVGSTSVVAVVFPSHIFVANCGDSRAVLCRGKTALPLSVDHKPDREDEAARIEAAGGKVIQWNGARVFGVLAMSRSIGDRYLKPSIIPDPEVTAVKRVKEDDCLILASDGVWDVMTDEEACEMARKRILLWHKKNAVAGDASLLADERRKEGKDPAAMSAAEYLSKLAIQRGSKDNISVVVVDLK
Variant | relative binding score [%]
F56K | -8.53
G23D | 7.32
R32T | 37.8
P83A | 25.3
F56S | -1.26
R123I | -6.34
R46F | -6.67
L82E | 8.66
I133K | 13.7
Q167H | 5.54
T154S | -0.189
Q31C | 1.28
M176E | 0.645

Set 4 — technique: protein-binding microarray; molecule type: double-stranded DNA, one strand shown; medium: in vitro; tested at: 250 nM; notes: 60-bp whole probe; together with: salmon DNA 0.4 mg/ml; reference: random background probes; reading: higher = stronger binding; all sequences stand within: GCCTAGCAC … GTCTTGATTCGCTTGACGCTGCTG
Target: Interferon regulatory factor 5, full length, phosphomimetic (IRF5, Homo sapiens, UniProt Q13568-2, residues 1-514, K96S/S451D/S453D/S456D/S462D)
Strand | log fluorescence [z-score]
TTAGGTTTCCTTATCCTGTAGTGCTAG | 0.92
TTAGCTCTCCTACTGCTTTAGTGCTAG | -0.295
TCACATTTCCAATTACCACTGTGCTAG | 0.821
TGTGCATGTGTGTTTTCTGCGTGCTAG | 0.172
GACGAACTGGGGTTTCGCGACGTGCTA | -0.105
TTAGGACTGGGGTATCGTTTAGTGCTA | 0.625
GACGGAGTGGGGTTTCGGGACGTGCTA | 1.25
TCACTTCCATTTTCTGAAACTGTGCTA | 2.27
TTAGGTATCGACTACCGGTTAGTGCTA | 3.77
CCCAGGGTCTGTTTGGGTCTGTGCTAG | -0.831
TTGCCTCACCTCACCTGTCCGTGCTAG | -0.0979
TTAGATCTCAGTCTCGATGAGTGCTAG | 0.34
CTCGTGGTCCTGCCCTGCCTGTGCTAG | -0.654
GACGGTCTCCTTTTCATGACGTGCTAG | 0.316
GACGGTTTCGGGTTTCGGGAAGTGCTA | 8.69
TCACTTTTATGCTCTTTCACTGTGCTA | 2.55
GACGATCTCAGTATCGAGGCGTGCTAG | 1.08
GCACTTTTCCCCCTAGTTGTGTGCTAG | 0.755
GACGGACTCGGGACTGGGGACGTGCTA | -0.457

Set 5 — technique: universal PBM; molecule type: double-stranded DNA, one strand shown; medium: in vitro; tested at: 600 nM; reading: higher = stronger binding
Target: Sal-like protein 4, full length isoform A (SALL4, Homo sapiens, UniProt Q9UJQ4, residues 1-1053)
Chain of UniProt Q9UJQ4 (whole entry, looked up): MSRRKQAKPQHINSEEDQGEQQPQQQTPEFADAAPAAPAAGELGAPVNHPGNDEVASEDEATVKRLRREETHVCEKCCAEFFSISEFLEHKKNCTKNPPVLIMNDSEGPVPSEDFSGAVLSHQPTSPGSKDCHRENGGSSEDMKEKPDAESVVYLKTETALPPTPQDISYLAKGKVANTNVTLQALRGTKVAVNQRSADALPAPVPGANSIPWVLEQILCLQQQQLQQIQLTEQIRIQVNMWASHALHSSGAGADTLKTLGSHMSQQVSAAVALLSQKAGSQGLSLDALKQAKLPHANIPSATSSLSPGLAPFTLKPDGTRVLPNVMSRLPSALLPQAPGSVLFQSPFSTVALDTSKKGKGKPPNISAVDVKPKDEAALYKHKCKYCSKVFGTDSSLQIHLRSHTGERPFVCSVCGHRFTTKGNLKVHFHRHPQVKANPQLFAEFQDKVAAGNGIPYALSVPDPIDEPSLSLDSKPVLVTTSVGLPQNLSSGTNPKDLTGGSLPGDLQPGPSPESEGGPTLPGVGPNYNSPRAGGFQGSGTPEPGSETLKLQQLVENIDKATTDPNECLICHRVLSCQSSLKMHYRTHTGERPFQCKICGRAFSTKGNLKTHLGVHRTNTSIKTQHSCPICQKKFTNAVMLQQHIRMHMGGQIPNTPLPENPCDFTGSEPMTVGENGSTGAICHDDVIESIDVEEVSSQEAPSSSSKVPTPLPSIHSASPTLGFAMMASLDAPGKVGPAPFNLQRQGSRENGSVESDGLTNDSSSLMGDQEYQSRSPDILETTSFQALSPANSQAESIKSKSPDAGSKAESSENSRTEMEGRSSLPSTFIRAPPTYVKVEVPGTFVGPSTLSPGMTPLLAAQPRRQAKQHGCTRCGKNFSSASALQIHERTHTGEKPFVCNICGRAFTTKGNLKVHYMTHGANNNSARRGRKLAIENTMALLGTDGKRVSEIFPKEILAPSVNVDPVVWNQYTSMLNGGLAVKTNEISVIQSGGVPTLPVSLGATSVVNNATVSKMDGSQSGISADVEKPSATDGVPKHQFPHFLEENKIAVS
Notes: 8-mer, flanks averaged, mean of replicates
Strand | E-score
GACGTGAC | -0.0766
GATGGGAA | -0.0749
CAAGTTGC | -0.0474
TAGCGCGA | -0.119
CCCCCCCA | -0.4
AATAGCAC | -0.0476
AGCATGTG | 0.0683
AGGTCAGA | -0.198
GGTTCAGA | -0.0817
CAGACGGG | -0.227
GGTGTCAA | -0.129
GATGAGCA | 0.0537
AAGCTCTG | -0.152
CCTGCATA | 0.1
ACGTCCAT | 0.0576
ACTGTGAA | 0.0761
CAGTGACG | -0.128
GACCATGC | -0.12
ATCGGCCG | -0.235
CCTCCCTC | -0.157
CTTAGCAA | 0.0366
CGATGCAG | -0.135
AGTAGTAA | 0.25
CAGGATGG | -0.155
CGGCGAAG | -0.219

Repeated from above (set 1):
Variant | normalised enrichment score
V3A | 1.24
P2A | 0.683
K8A | 0.78
L9F | 0.34
G11A | 0.509
S6A | 1.13
L9A | 0.76
